{"data": "Results collected from several papers", "note": "“And” joins repeats or separate records; there may be more than shown. ± gives the spread as reported."}
{"Structure (SMILES)": "CSCC[C@H](NC(=O)CNC(=O)[C@H](CCCCN)NC(=O)[C@H](CC(C)C)NC(=O)[C@@H]1CCCN1C(=O)[C@H](CO)NC(=O)[C@H](Cc1c[nH]cn1)NC(=O)[C@H](Cc1c[nH]c2ccccc12)NC(=O)[C@H](CCCNC(=N)N)NC(=O)[C@H](CC(C)C)NC(=O)[C@H](CCCNC(=N)N)NC(=O)[C@H](Cc1c[nH]c2ccccc12)NC(=O)[C@H](CS)NC(=O)CCCCCNC(=O)CN1CCN(CC(=O)O)CCN(CC(=O)O)CCN(CC(=O)O)CC1)C(=O)O [copper-64 labelled]", "test system": "male C57BL/6J mice, B16-F10 tumour, intestinal lymph node", "setting": "intravenous, 1.85 MBq, 2 h", "quantity": "tissue uptake", "result": "1.64 %ID/g"}
{"Structure (SMILES)": "Cc1ccc(OCCN(C)C)cc1C(=O)N[C@H](C)c1cc(-c2cccnc2N2CCCC2)nc2ccccc12", "tested on": "Vero E6", "setting": "125 µM", "quantity": "viability", "result": "-0.457% and 0.228%"}
{"Structure (SMILES)": "CN[C@H](CC(C)C)C(=O)N[C@H]1C(=O)N[C@@H](CC(N)=O)C(=O)N[C@H]2C(=O)N[C@H]3C(=O)N[C@H](C(=O)N[C@H](C(=O)O)c4cc(O)cc(O)c4-c4cc3ccc4O)[C@H](O)c3ccc(c(Cl)c3)Oc3cc2cc(c3O[C@@H]2O[C@H](CO)[C@@H](O)[C@H](O)[C@H]2O[C@H]2C[C@](C)(NCc3ccc(-c4ccc(Cl)cc4)cc3)[C@H](O)[C@H](C)O2)Oc2ccc(cc2Cl)[C@H]1O", "test system": "mouse, plasma", "setting": "intravenous, 10 mg/kg", "quantity": "Vd", "result": "1.28 L/kg"}
{"Structure (SMILES)": "CCc1nn(C)c2nc(-c3ccc(C(=O)O)cc3)nc(NCc3ccccc3)c12", "test system": "male CD-1 mouse, plasma", "setting": "oral, 10 mg/kg, 30 min", "quantity": "concentration", "result": "1430 ng/mL"}
{"Structure (SMILES)": "CC[C@H](C)[C@H](NC(=O)[C@H](Cc1c[nH]c2ccccc12)NC(=O)c1ccccc1)C(=O)N[C@H](C(=O)N[C@@H](Cc1ccc(O)cc1)C(=O)N[C@@H](CCCCN)C(=O)N[C@@H](Cc1c[nH]c2ccccc12)C(=O)N1CCC[C@@H]1C(=O)N[C@@H](CCCNC(=N)N)C(=O)N[C@@H](CCCCN)C(=O)N[C@@H](CCCCN)C(=O)N[C@H](C(=O)N[C@@H](CCCNC(=N)N)C(=O)N[C@@H](Cc1ccc(O)cc1)C(=O)N[C@@H](Cc1c[nH]c2ccccc12)C(=O)N[C@H](C(=O)NCC(=O)N1CCC[C@H]1C(N)=O)[C@@H](C)O)C(C)C)C(C)C", "assay": "circular dichroism", "test system": "phosphate buffer", "setting": "30 µM, pH 6.5", "quantity": "melting temperature", "result": "73.9 °C"}
{"Structure (SMILES)": "CC(CCC(=O)NCC(=O)O)C1CCC2C3CCC4CC(OC5OC(C(=O)O)C(O)C(O)C5O)CCC4(C)C3CC(O)C12C (stereo not drawn)", "test system": "human men", "setting": "dose not given, SLCO1B1 *14/*35", "quantity": "plasma concentration", "result": "109 ng/mL"}
{"Structure (SMILES)": "CC[C@H](C)[C@H](NC(=O)[C@H](C)NC(=O)[C@H](C)NC(=O)[C@H](CCC(N)=O)NC(=O)CNC(=O)[C@H](CC(C)C)NC(=O)[C@H](Cc1c[nH]cn1)NC(=O)[C@H](CCCCN)NC(=O)[C@H](C)NC(=O)CNC(=O)[C@H](CCCCN)NC(=O)[C@H](CCCNC(=N)N)NC(=O)[C@H](CC(C)C)NC(=O)[C@H](Cc1c[nH]c2ccccc12)NC(=O)[C@H](CCCCN)NC(=O)[C@H](CCCCN)NC(=O)[C@H](Cc1c[nH]c2ccccc12)NC(=O)CN)C(=O)N[C@@H](CCCCN)C(N)=O", "test system": "zebrafish embryos 28 hpf, E3 medium", "setting": "1 h", "quantity": "acute toxic concentration", "result": "25 µM"}
{"Structure (SMILES)": "CC(C(=O)O)n1nc(Cn2cc3cc(OCC[18F])c(Cl)cc3n2)c2ccccc2c1=O (racemic)", "assay": "HPLC", "test system": "nonhuman primate, plasma", "setting": "120 min post-injection", "how to read": "relative to: plasma radioactivity", "quantity": "lipophilic radiometabolite", "result": "9%"}
{"Structure (SMILES)": "COc1ccc(CNc2ccc3c(c2)S(=O)(=O)C=C3)cc1", "test system": "male C57BL/6 mice, blood", "setting": "intraperitoneal, 10 mg/kg, day 8, group average", "quantity": "platelet distribution width", "result": "14.7%"}
{"Structure (SMILES)": "CCN(CCCCOc1ccc(CCC(=O)N2CCC(Cc3ccccc3)CC2)cc1OC)Cc1ccccc1", "test system": "Sprague-Dawley rats, both sexes, urine", "setting": "oral gavage, 25 mg/kg, 6 to 12 h", "how to read": "relative to: dose", "quantity": "excretion rate", "result": "0.0154 ± 0.0023%"}
{"Structure (SMILES)": "C[C@H](NCc1ccc(-c2ccc(C(F)(F)F)cc2)cc1)C(N)=O", "assay": "general toxicity", "test system": "Sprague-Dawley rat", "setting": "oral, multiple doses, once daily", "quantity": "NOAEL", "result": "> 200 mg/kg/day"}
{"Structure (SMILES)": "CC(C)=CCC/C(C)=C/CCn1cc(CC(P(=O)(O)O)P(=O)(O)O)nn1", "test system": "CD-1 mouse, plasma", "setting": "intravenous, 0.5 mg/kg, single dose", "quantity": "half-life", "result": "77.1 h"}
{"Structure (SMILES)": "Cc1ccc(OCC(=O)N(Cc2cccs2)c2ccn[nH]2)cc1", "assay": "micronucleus", "test system": "CD-1 mouse Crl:CD-1(ICR), male, bone marrow", "setting": "oral, 1500 mg/kg/day, 3 days", "quantity": "PCE to total erythrocyte ratio", "result": "0.63 ± 0.06"}
{"Structure (SMILES)": "COc1c(N2CC3CCCNC3C2)c(F)cc2c(=O)c(C(=O)OCc3ccc([N+](=O)[O-])cc3)cn(C3CC3)c12 (stereo not drawn)", "assay": "cyclic voltammetry", "test system": "anhydrous acetonitrile", "setting": "concentration not given", "how to read": "relative to: Ag/AgCl", "quantity": "reduction potential", "result": "-0.96 V"}
{"Structure (SMILES)": "O=C1NC2(CC2)COc2ncc(F)cc2[C@H]2COCCN2c2ccn3ncc1c3n2", "test system": "Sprague-Dawley rat, female, liver", "setting": "oral, 2.5 mg/kg/day, 4 weeks dosing, end of recovery", "quantity": "organ-to-body weight ratio", "result": "2.86 ± 0.242%"}
{"Structure (SMILES)": "CC[C@H](C)[C@H](NC(=O)[C@H](Cc1ccccc1)NC(=O)[C@H](CCC(=O)O)NC(=O)[C@H](CCCCN)NC(=O)[C@H](C)NC(=O)[C@H](C)NC(=O)[C@H](CCC(N)=O)NC(=O)CNC(=O)[C@H](CCC(=O)O)NC(=O)[C@H](CC(C)C)NC(=O)[C@H](Cc1ccc(O)cc1)NC(=O)[C@H](CO)NC(=O)[C@H](CO)NC(=O)[C@@H](NC(=O)[C@H](CC(=O)O)NC(=O)[C@H](CO)NC(=O)[C@@H](NC(=O)[C@H](Cc1ccccc1)NC(=O)[C@@H](NC(=O)CNC(=O)[C@H](CCC(=O)O)NC(=O)CNC(=O)[C@@H](N)Cc1c[nH]cn1)[C@@H](C)O)[C@@H](C)O)C(C)C)C(=O)N[C@@H](C)C(=O)N[C@@H](Cc1c[nH]c2ccccc12)C(=O)N[C@@H](CC(C)C)C(=O)N[C@H](C(=O)N[C@@H](CCCCN)C(=O)NCC(=O)N[C@@H](CCCNC(=N)N)C(=O)N[C@@H](CSC1CC(=O)N(CCC(=O)NCCCCC(NC(=O)CCN2C(=O)CC(SC[C@H](NC(=O)[C@H](CCCNC(=N)N)NC(=O)CNC(=O)[C@H](CCCCN)NC(=O)[C@@H](NC(=O)[C@H](CC(C)C)NC(=O)[C@H](Cc3c[nH]c4ccccc34)NC(=O)[C@H](C)NC(=O)[C@@H](NC(=O)[C@H](Cc3ccccc3)NC(=O)[C@H](CCC(=O)O)NC(=O)[C@H](CCCCN)NC(=O)[C@H](C)NC(=O)[C@H](C)NC(=O)[C@H](CCC(N)=O)NC(=O)CNC(=O)[C@H](CCC(=O)O)NC(=O)[C@H](CC(C)C)NC(=O)[C@H](Cc3ccc(O)cc3)NC(=O)[C@H](CO)NC(=O)[C@H](CO)NC(=O)[C@@H](NC(=O)[C@H](CC(=O)O)NC(=O)[C@H](CO)NC(=O)[C@@H](NC(=O)[C@H](Cc3ccccc3)NC(=O)[C@@H](NC(=O)CNC(=O)[C@H](CCC(=O)O)NC(=O)CNC(=O)[C@@H](N)Cc3c[nH]cn3)[C@@H](C)O)[C@@H](C)O)C(C)C)[C@@H](C)CC)C(C)C)C(N)=O)C2=O)C(=O)NCCCCCCN)C1=O)C(N)=O)C(C)C (stereo partly drawn)", "test system": "Kunming mouse, plasma", "setting": "subcutaneous, 50 nmol/kg", "quantity": "MRT", "result": "2.6 ± 0.2 h"}
{"Structure (SMILES)": "CC[C@H](C)[C@H](NC(=O)[C@H](CCCCN)NC(=O)CNC(=O)[C@H](CC(C)C)NC(=O)[C@H](Cc1ccccc1)NC(=O)[C@H](CCCCN)NC(=O)[C@H](CO)NC(=O)[C@H](Cc1ccccc1)NC(=O)[C@H](Cc1c[nH]c2ccccc12)NC(=O)[C@H](CCC(N)=O)NC(=O)[C@@H](NC(=O)[C@H](Cc1ccccc1)NC(=O)CCCCCNC(=O)CN1CCN(CC(=O)O)CCN(CC(=O)O)CCN(CC(=O)O)CC1)C(C)C)C(=O)N[C@@H](CCC(=O)O)C(=O)N1CCC[C@H]1C(=O)N[C@@H](CC(=O)O)C(=O)N[C@H](C(=O)N[C@@H](CO)C(=O)N[C@@H](CCC(N)=O)C(=O)N[C@H](C(=O)N[C@@H](CCC(N)=O)C(=O)N[C@@H](CC(=O)O)C(=O)N1CCC[C@H]1C(=O)N[C@@H](CC(N)=O)C(=O)N[C@@H](CC(=O)O)C(=O)N[C@@H](CCC(N)=O)C(=O)N[C@@H](Cc1ccc(O)cc1)C(=O)N[C@@H](CCC(=O)O)C(=O)N1CCC[C@H]1C(=O)N[C@@H](Cc1ccccc1)C(=O)O)C(C)C)C(C)C [copper-64 labelled]", "test system": "C57BL/6 mice, brain", "setting": "with: LPS 3 mg/kg intratracheal", "quantity": "tissue uptake", "result": "0.21 ± 0.02 %ID/g"}
{"Structure (SMILES)": "CC(C)[C@@H]1NC(=O)CNC(=O)[C@H](CC(N)=O)NC(=O)[C@H](CCCNC(=N)N)NC(=O)[C@H](Cc2ccc(O)cc2)NC(=O)[C@H](C(C)C)NC(=O)[C@@H](NC(=O)[C@@H](NC(=O)[C@H](CC(N)=O)NC(=O)[C@H](Cc2c[nH]c3ccccc23)NC(=O)[C@H](C)NC(=O)[C@H](Cc2ccccc2)NC(=O)CNC(=O)[C@H](CCCCN)NC(=O)[C@H](Cc2ccccc2)NC(=O)[C@H](Cc2ccccc2)NC(=O)[C@H](CCCCN)NC(=O)OCC2c3ccccc3-c3ccccc32)C(C)C)CSSC[C@@H](C(=O)N[C@@H](Cc2c[nH]cn2)C(=O)N[C@@H](CCCNC(=N)N)C(=O)N[C@@H](CCCNC(=N)N)C(=O)N[C@@H](C)C(=O)N[C@@H](CC(N)=O)C(N)=O)NC(=O)[C@H](C(C)C)NC(=O)[C@H](CCCNC(=N)N)NC1=O", "test system": "ICR mice, blood", "setting": "intraperitoneal, 10 mg/kg, day 5", "quantity": "platelet distribution width", "result": "15.87 ± 0.09%"}
{"Structure (SMILES)": "CC(C)[C@@H]1NC(=O)[C@H](Cc2ccc(O)cc2)NC(=O)[C@H](Cc2ccccc2)NC(=O)[C@H]([C@@H](C)O)NC(=O)[C@@H](Cc2ccc(O)cc2)NC(=O)CSC[C@H](C(=O)NCCOCCOCCOCCOCCOCCOCCC(N)=O)NC(=O)[C@H](C)NC(=O)[C@H](CO)NC(=O)[C@@H]2CCC[C@@H]2NC(=O)[C@H](Cc2c[nH]cn2)NC(=O)[C@H](CCCNC(=N)N)NC(=O)[C@H](Cc2ccc(O)cc2)NC(=O)[C@H]([C@@H](C)O)NC(=O)[C@H](Cc2ccccc2)NC(=O)[C@H]([C@@H](C)O)NC(=O)[C@H](Cc2ccc(O)cc2)NC(=O)[C@H](Cc2ccccc2)NC1=O", "test system": "simulated intestinal fluid", "setting": "pH 6.8, 37 °C, with: pancreatin", "quantity": "time to complete degradation", "result": "< 10 min"}
{"Structure (SMILES)": "Cc1ccc(OCCN(C)C)cc1C(=O)N[C@H](C)c1cc(-c2ccnn2C)nc2ccccc12", "tested on": "Vero E6", "setting": "31.25 µM", "quantity": "viability", "result": "91.2%"}
{"Structure (SMILES)": "C=Cc1c(C)c2cc3nc(c(CC(=O)[O-])c4[n-]c(cc5nc(cc1[n-]2)C(C)=C5CC)c(C)c4C(=O)[O-])C(CCC(=O)[O-])C3C.[Cu+2].[Na+].[Na+].[Na+] (stereo not drawn)", "test system": "Wistar rat, male", "setting": "oral, 1000 mg/kg daily, 28 days", "quantity": "serum albumin", "result": "1 ± 0.19 g/dL"}
